Experimental data of several laboratories.
Compare with care: the assays were run in different laboratories.
Organism: Escherichia coli

O=C1c2ccccc2C(=O)c2c1ccc1c2C(C(=O)Nc2ccccc2)C(=O)C1c1ccccc1 (centres unmarked) — MIC (microbial growth): > 100 µg/mL
C/C(=N\Nc1nc(C)cs1)c1ccc2c(c1)sc1nc(=O)c(C#N)cn12 — MIC (microbial growth, broth dilution): < 41 µg/mL
CC(CCCOC(=O)CCC[N+](C)(C)C)C1CCC2C3CCC4CC(OC(=O)CCC[N+](C)(C)C)CCC4(C)C3CC(OC(=O)CCC[N+](C)(C)C)C12C (centres unmarked) — MIC (microbial growth, broth dilution; ATCC25922; 16 h): 15.6 µg/mL
COc1ccc2ccc3c(c2c1)C=[N+]1C2CCCCC2[N+]2=Cc4ccc(F)cc4[O][Au-]21[O]3.F[P-](F)(F)(F)(F)F (centres unmarked) — MIC (bacterial growth, broth microdilution; carbapenem-resistant; 24 h): 20 µM
O=C1OCC(NCCc2ccc(Cl)cc2)N1/N=C/c1ccc([N+](=O)[O-])o1 (centres unmarked) — MIC (microbial growth, broth dilution; ATCC25922; 18 h): 3.12 µg/mL
CCCCCCCCCCCCCCN1C(=O)/C(=N\NC(=N)N)c2cc(C)ccc21 — MIC (broth microdilution; 25922; 18 h, 37 °C): > 192 µg/mL
CCCCN(CCCC)CC(O)COc1c2ccoc2c(OC)c2oc(CC)cc(=O)c12 (centres unmarked) — MIC (microbial growth, broth dilution; ATCC25; 19 h): > 256 µg/mL
NC[C@@H]1O[C@H](O[C@H]2[C@@H](O)[C@H](O[C@@H]3[C@@H](O)[C@H](N)C[C@H](N)[C@H]3O[C@H]3O[C@H](CO)[C@@H](OCC(O)CO)[C@H](O)[C@H]3N)O[C@@H]2CO)[C@H](N)[C@@H](O)[C@@H]1O (some centres unmarked) — MIC (broth microdilution; clinical isolate AG 001): 32 to 64 µg/mL
CC(C)=CCc1cc2c(cc1O)OCc1c-2oc2c(CC=C(C)C)c(O)ccc12 — MIC (TISTR 780): 128 µg/mL
O=C(NCCNCCO)c1cn(Cc2ccc(F)cc2)c2cc(Cl)c(OCc3ccc(C(F)(F)F)cc3)cc2c1=O — MIC (ATCC 25922; ≥80% growth inhibition): < 0.25 µg/mL
NC[C@@H]1O[C@H](O[C@H]2[C@@H](O)[C@H](O[C@@H]3[C@@H](O)[C@H](N)C[C@H](N)[C@H]3O[C@H]3O[C@H](CO)[C@@H](OCCO)[C@H](O)[C@H]3N)O[C@@H]2CO)[C@H](N)[C@@H](O)[C@@H]1O — MIC (broth microdilution; clinical isolate AG 055): 32 to 64 µg/mL
CC(=O)c1ccc2c(c1)sc1nc(=O)c(C#N)cn12 — MIC (microbial growth, broth dilution): < 49 µg/mL
c1ccc(CN2CCOCCOCCN(CCCCCCCCCCN3CCOCCOCCN(CCCCCCCCCCN4CCOCCOCCN(Cc5ccccc5)CCOCCOCC4)CCOCCOCC3)CCOCCOCC2)cc1 — MIC (Tol-): 13 µM
CN1CCC(NCCC2(Cc3ccc(Cl)cc3)CCCCC2)CC1 — MIC (microbial growth; K12; 10 h): 50 µM
CCCCc1ccc(N2C(=O)/C(=N\NC(=N)N)c3ccccc32)cc1 — MIC (microbial growth, broth dilution; 18 h): 12 µg/mL
CC(=O)[O][Ag]=[c]1n(C)ccn1CC([O-])c1ccccc1.[Na+] (centres unmarked) — MIC (broth dilution; ATCC 25922; 18 h, 37 °C): 5 µg/mL
C/C(=N/NC(=N)N)c1nnn(-c2ccc(C#Cc3ccsc3)cc2)c1C — MIC (microbial growth, broth dilution; BW25113): > 64 µg/mL
O=[N+]([O-])c1cccc(S(=O)(=O)NC[C@@H](O)[C@@H]2CCc3cc(F)ccc3O2)c1 — MIC (microbial growth): 12.1 µg/mL
CCc1[nH]c(C(=O)N[C@@H]2CCN(c3nnc(C(C)(C)O)s3)C[C@@H]2OC)nc1Cl — MIC (ATCC 25922): 64 µg/mL
CCCCO[C@H]1[C@H](O)[C@@H](N)[C@@H](O[C@H]2[C@H](O[C@@H]3O[C@H](CO)[C@@H](O[C@H]4O[C@@H](CN)[C@@H](O)[C@H](O)[C@H]4N)[C@H]3O)[C@@H](O)[C@H](N)C[C@@H]2N)O[C@@H]1CO — MIC (broth microdilution; clinical isolate AG 003): 64 µg/mL
O=C1OCC(O)N1/N=C/c1ccc([N+](=O)[O-])o1 (centres unmarked) — MIC (microbial growth, broth dilution; ATCC25922; 18 h): 1.56 µg/mL
CCN(CC)CCCN1/C(=C/c2cc(C)[n+](C)c3ccccc23)Sc2ccccc21 — MIC (microbial growth, broth dilution; ATCC25922): 2 µg/mL
COc1ccc2ccc3c(c2c1)C=[N+]1C2CCCCC2[N+]2=Cc4cccc(F)c4[O][Au-]21[O]3.F[P-](F)(F)(F)(F)F (centres unmarked) — MIC (bacterial growth, broth microdilution; carbapenem-resistant clinical isolate; 24 h): 20 µM
C=CCO[C@H]1[C@H](O)[C@@H](N)[C@@H](O[C@H]2[C@H](O[C@@H]3O[C@H](CO)[C@@H](O[C@H]4O[C@@H](CN)[C@@H](O)[C@H](O)[C@H]4N)[C@H]3O)[C@@H](O)[C@H](N)C[C@@H]2N)O[C@@H]1CO — MIC (microbial growth, broth dilution; clinical isolate): 64 µg/mL
C=CCOC(=O)c1ccc(NC(=O)c2ccc(NC(=O)c3ccc(NC(=O)C(CC(N)=O)NC(=O)c4ccc(NC(=O)c5ccc([N+](=O)[O-])cc5)cc4)cc3)c(OC(C)C)c2OCC=C)cc1 (centres unmarked) — MIC (microbial growth; DSM1116): > 64 µg/mL
COc1ccc2ccc3c(c2c1)C=[N+]1C2CCCCC2[N+]2=Cc4ccc(-c5ccccc5)cc4[O][Au-]21[O]3.F[P-](F)(F)(F)(F)F (centres unmarked) — MIC (bacterial growth, broth microdilution; carbapenem-resistant; 24 h): > 20 µM
CC(C)C[C@@H]1NC(=O)[C@@H](CC(C)C)NC(=O)[C@H](CCN)NC(=O)[C@@H](NC(=O)[C@H](CCN)NC(=O)[C@@H](N)[C@@H](C)O)CCNC(=O)[C@H]([C@@H](C)O)NC(=O)[C@H](CCN)NC(=O)[C@H](CCN)NC1=O — MIC (broth microdilution; ATCC 35218, CAMHB with polysorbate-80; 16 h): > 64 µg/mL
CCn1cc[n+](CC)[c]1[Au-]([Cl])([Cl])[Cl] — MIC (broth dilution; DSM 1116; 20 h, 37 °C): 18.7 µM
COc1ccc2ccc3c(c2c1)C=[N+]1C2CCCCC2[N+]2=Cc4cc(C)ccc4[O][Au-]21[O]3.F[P-](F)(F)(F)(F)F (centres unmarked) — MIC (bacterial growth, broth microdilution; carbapenem-resistant; 24 h): > 20 µM

Some of these lines once more:
C/C(=N/NC(=N)N)c1nnn(-c2ccc(C#Cc3ccsc3)cc2)c1C — MIC (microbial growth, broth dilution; BW25113): > 64 µg/mL
O=[N+]([O-])c1cccc(S(=O)(=O)NC[C@@H](O)[C@@H]2CCc3cc(F)ccc3O2)c1 — MIC (microbial growth): 12.1 µg/mL
CCc1[nH]c(C(=O)N[C@@H]2CCN(c3nnc(C(C)(C)O)s3)C[C@@H]2OC)nc1Cl — MIC (ATCC 25922): 64 µg/mL
CCCCO[C@H]1[C@H](O)[C@@H](N)[C@@H](O[C@H]2[C@H](O[C@@H]3O[C@H](CO)[C@@H](O[C@H]4O[C@@H](CN)[C@@H](O)[C@H](O)[C@H]4N)[C@H]3O)[C@@H](O)[C@H](N)C[C@@H]2N)O[C@@H]1CO — MIC (broth microdilution; clinical isolate AG 003): 64 µg/mL
O=C1OCC(O)N1/N=C/c1ccc([N+](=O)[O-])o1 (centres unmarked) — MIC (microbial growth, broth dilution; ATCC25922; 18 h): 1.56 µg/mL
